{"data": "Measured values of several laboratories", "DRD2": "D(2) dopamine receptor (DRD2, Homo sapiens, UniProt P14416)", "DRD2 long isoform": "D(2) dopamine receptor, long isoform (DRD2, Homo sapiens, UniProt P14416)", "note": "Protocols differ between the studies behind these lines. ± marks the error that the study gave.", "UniProt P14416, sequence (whole entry, looked up)": "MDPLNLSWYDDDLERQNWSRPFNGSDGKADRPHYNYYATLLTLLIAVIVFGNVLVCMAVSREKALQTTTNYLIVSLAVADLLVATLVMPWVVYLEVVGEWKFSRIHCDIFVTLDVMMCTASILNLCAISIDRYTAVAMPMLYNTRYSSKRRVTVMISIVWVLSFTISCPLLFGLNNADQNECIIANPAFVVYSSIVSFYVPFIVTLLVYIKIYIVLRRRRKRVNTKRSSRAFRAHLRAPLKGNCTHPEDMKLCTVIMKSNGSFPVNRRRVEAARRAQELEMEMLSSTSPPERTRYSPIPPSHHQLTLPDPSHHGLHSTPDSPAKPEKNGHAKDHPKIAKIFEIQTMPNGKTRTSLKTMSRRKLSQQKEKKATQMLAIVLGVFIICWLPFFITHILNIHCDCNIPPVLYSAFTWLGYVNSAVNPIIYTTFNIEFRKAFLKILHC"}
{"Structure (SMILES)": "OCCNCc1ccc(-c2cc(Cl)cc(Cl)c2)o1", "target": "DRD2", "assay": "ligand displacement, radioligand", "measurement": "Ki", "value": "543 nM"}
{"Structure (SMILES)": "CN1CCN(c2ccc3cnn(S(=O)(=O)c4cccc5ccccc45)c3c2)CC1", "target": "DRD2 long isoform", "assay": "binding, radioligand displacement", "test system": "HEK293 membranes", "setting": "1 h, 37 °C, added: [3H]-raclopride", "measurement": "Ki", "value": "973 ± 81 nM"}
{"Structure (SMILES)": "Cc1ccc(NS(=O)(=O)c2c(C)[nH]c(C)c2C(=O)N2CCCCC2)cc1Cl", "target": "DRD2", "measurement": "IC50", "value": "> 100000 nM"}
{"Structure (SMILES)": "OC(CN1CCN(c2nsc3ccccc23)CC1)c1cccs1 (centres unmarked)", "target": "DRD2", "assay": "ligand displacement, radioligand", "measurement": "Ki", "value": "430 nM"}
{"Structure (SMILES)": "CC1Cc2ccccc2N1C(=O)CN1CCN(Cc2ccccc2)CC1 (centres unmarked)", "target": "DRD2", "assay": "ligand displacement, radioligand", "measurement": "Ki", "value": "> 10000 nM"}
{"Structure (SMILES)": "CC(C)n1ccc2c(N3CCN(CCCCOc4ccc5c(c4)NC(=O)CC5)CC3)cccc21", "target": "DRD2", "assay": "cell-free assay, radioligand", "measurement": "Ki", "value": "66.1 nM"}
{"Structure (SMILES)": "Cc1[nH]c(C)c(S(=O)(=O)NC2CCCCC2)c1C(=O)N1CCCC1", "target": "DRD2", "measurement": "IC50", "value": "> 100000 nM"}
{"Structure (SMILES)": "CC(C)(CO)NCc1ccc(-c2cc(Cl)cc(Cl)c2)o1", "target": "DRD2", "assay": "ligand displacement, radioligand", "measurement": "Ki", "value": "329 nM"}
{"Structure (SMILES)": "Cc1[nH]c(C)c(S(=O)(=O)Nc2ccccc2)c1C(=O)N1CCCC1", "target": "DRD2", "measurement": "IC50", "value": "> 100000 nM"}
{"Structure (SMILES)": "CN1CCN(c2cn(C(=O)c3ccccc3)c3ccccc23)CC1", "target": "DRD2 long isoform", "assay": "binding, radioligand displacement", "test system": "HEK293 membranes", "setting": "1 h, 37 °C, added: [3H]-raclopride", "measurement": "Ki", "value": "162 ± 9 nM"}
{"Structure (SMILES)": "CCCn1ccc2c(N3CCN(CCCCOc4ccc5c(c4)NC(=O)CC5)CC3)cccc21", "target": "DRD2", "assay": "ligand displacement, radioligand", "measurement": "Ki", "value": "60 nM"}
{"note": "Some of these lines once more:"}
{"Structure (SMILES)": "OC(CN1CCN(c2nsc3ccccc23)CC1)c1cccs1 (centres unmarked)", "target": "DRD2", "assay": "ligand displacement, radioligand", "measurement": "Ki", "value": "430 nM"}
